Experimental data pooled from the literature.
Each line is one published result; not all experiments were run side by side.

O.O=[N+]([O-])[O-].O=c1cc[nH]c(=S)[nH]1.[Ag+].c1ccc(P(c2ccccc2)c2ccccc2)cc1.c1ccc(P(c2ccccc2)c2ccccc2)cc1
MIC (Shigella flexneri; agar dilution; MTCC 1457, Mueller Hinton agar; 24 h, 37 °C): 7 µg/mL

CCCCc1ccc(-c2nc(C)c(C(C)=NNC(=N)N)s2)cc1
MIC (Staphylococcus aureus; three VRSA strains; all strains): 0.7 µg/mL

CC[C@H](C)[C@@H]1NC(=O)CNC(=O)[C@H](CCCCN)NC(=O)[C@H](C)NC(=O)[C@H](CCC(=O)O)NC(=O)[C@H](Cc2ccccc2)NC(=O)[C@H](CO)NC(=O)[C@H](CC(C)C)NC(=O)[C@H](C(C)C)NC(=O)[C@H](CC(=O)O)NC(=O)[C@@H](NC(=O)[C@@H](NC(=O)[C@@H](N)C(C)C)[C@@H](C)O)CSSC[C@@H]2NC(=O)[C@H](CO)NC(=O)CNC(=O)CNC(=O)[C@H](CCCCN)NC(=O)[C@H](CCCCN)NC(=O)[C@H](CCCNC(=N)N)NC(=O)[C@H](CC(C)C)NC(=O)[C@H](C)NC(=O)[C@H]([C@@H](C)CC)NC(=O)[C@@H]3CSSC[C@@H](C(=O)N[C@@H](CCCNC(=N)N)C(=O)N[C@@H](CC(N)=O)C(=O)O)NC(=O)[C@H](C(C)C)NC(=O)[C@H](CSSC[C@H](NC(=O)[C@H](C)NC(=O)[C@H](CO)NC(=O)[C@H](Cc4c[nH]cn4)NC(=O)[C@H](CC(N)=O)NC(=O)[C@H](C(C)C)NC(=O)[C@H](C)NC1=O)C(=O)N[C@@H](C)C(=O)N[C@@H](CC(C)C)C(=O)N[C@@H](Cc1c[nH]cn1)C(=O)N3)NC(=O)[C@H](C(C)C)NC(=O)CNC(=O)[C@H](CC(N)=O)NC(=O)[C@H](CCC(N)=O)NC2=O
MIC (Candida parapsilosis; broth microdilution; ATCC 22019; 28 °C): 10 µM

COc1ccc(C2=[N+]([O-])c3ccccc3N3CC(C)(C)CN=C23)cc1
MIC (Finegoldia magna): 4 µg/mL

CCCCCCCC/C=C\CCCCc1cc(=O)c2ccccc2n1C
MIC (Mycolicibacterium smegmatis; spot culture on 7H10 agar; mc2 155; 3 days, 37 °C): 10 µg/mL

COc1ccc(C2=[N+]([O-])c3ccccc3N3CCN=C23)cc1
MIC (Bacteroides fragilis; microbial growth; ATCC25285): ≤ 0.06 µg/mL

CC[C@H](C)[C@H](NC(=O)[C@@H]1CC(=O)N[C@@H](CO)C(=O)N[C@@H](CC(C)C)C(=O)NCC(=O)N[C@@H](CO)C(=O)N[C@@H](CO)C(=O)N2CCC[C@H]2C(=O)N[C@@H](Cc2ccc(O)cc2)C(=O)N[C@@H](CC(N)=O)C(=O)N1)C(=O)N[C@@H](CC(C)C)C(=O)NCC(=O)N[C@@H](Cc1ccc(O)cc1)C(=O)N1CCC[C@H]1C(=O)N[C@@H](C)C(=O)N[C@@H](CC(C)C)C(=O)N[C@H](C(=O)N[C@H](C(=O)N[C@H](C(=O)N[C@@H](Cc1ccc(O)cc1)C(=O)N1CCC[C@H]1C(=O)O)[C@@H](C)CC)C(C)C)[C@@H](C)CC
MIC (Aspergillus niger): > 128 µg/mL

CC1C(=NNC(=O)c2ccncc2)C(C)C(c2ccc(Br)cc2)OC1c1ccc(Br)cc1 (stereo not shown)
MIC (Aspergillus niger; microbial growth): 50 µg/mL

CC[C@H](C)[C@H](NC(=O)[C@H](CCCCN)NC(=O)[C@H](CCCCN)NC(=O)[C@H](Cc1ccccc1)NC(=O)[C@H](Cc1ccccc1)NC(=O)[C@H](CCCCN)NC(=O)[C@H](CCCCN)NC(=O)[C@H](Cc1ccccc1)NC(=O)[C@H](CCCNC(=N)N)NC(=O)[C@@H](N)CCCCN)C(=O)N[C@@H](CCCCN)C(=O)N[C@@H](CCCCN)C(=O)N[C@@H](CO)C(=O)N[C@H](C(=O)N[C@@H](CCCCN)C(=O)N[C@@H](CCCCN)C(=O)N[C@@H](CCCNC(=N)N)C(=O)N[C@H](C(=O)N[C@@H](CCCCN)C(=O)N[C@@H](CCCCN)C(=O)N[C@@H](CC(C)C)C(=O)N[C@@H](Cc1ccccc1)C(=O)N[C@@H](CCCCN)C(=O)N[C@@H](CCCCN)C(=O)N1CCC[C@H]1C(=O)N[C@@H](CCCNC(=N)N)C(=O)N[C@H](C(=O)N[C@H](C(=O)N1CCC[C@H]1C(=O)N[C@H](C(=O)N[C@@H](CO)C(=O)N[C@H](C(=O)N1CCC[C@H]1C(=O)N[C@@H](Cc1ccccc1)C(=O)O)[C@@H](C)CC)[C@@H](C)CC)[C@@H](C)CC)C(C)C)C(C)C)C(C)C
MIC (gram-negative bacteria; agar dilution; clinical isolates; summary range): 8 to 32 µg/mL

C[N+]1=C2C(c3ccc(Cl)cc3)=[N+]([O-])c3ccccc3N2CCC1
MIC (Bacteroides fragilis; microbial growth; ATCC25285): 4 µg/mL

CC[C@H](C)[C@H](NC(=O)[C@H](Cc1c[nH]c2ccccc12)NC(=O)[C@H](CCCNC(=N)N)NC(=O)[C@H](CCC(N)=O)NC(=O)[C@@H](NC(=O)[C@H](Cc1c[nH]c2ccccc12)NC(=O)[C@H](CCCNC(=N)N)NC(=O)[C@H](CCCNC(=N)N)NC(=O)[C@H](CCSC)NC(=O)[C@H](C)NC(=O)[C@H](CCCCN)NC(=O)[C@@H]1CCCN1C(=O)[C@H](C)N)C(C)C)C(=O)N[C@@H](CCCNC(=N)N)C(=O)N[C@@H](CCCNC(=N)N)C(=O)N[C@@H](Cc1c[nH]c2ccccc12)C(=O)N[C@@H](CCCNC(=N)N)C(=O)N1CCC[C@H]1C(=O)N[C@@H](CCCCN)C(=O)N[C@H](C(=O)N[C@@H](Cc1ccccc1)C(=O)N[C@@H](CCC(N)=O)C(=O)N[C@H](C(=O)N[C@H](C(=O)NCC(=O)N[C@@H](CO)C(=O)N[C@@H](CO)C(=O)N[C@@H](C)C(N)=O)[C@@H](C)O)C(C)C)C(C)C
MIC (Aspergillus fumigatus; metabolic activity, resazurin; azole-resistant; 27 h, 37 °C): 5 µM

O=C(NCc1nc(-c2ccc(Br)cc2)c[nH]1)Nc1ncc(Sc2ccccn2)s1
MIC (Bacteroides fragilis; broth microdilution; ATCC 25285; without verapamil): > 128 µM

c1ccc(CCNC2CCCc3c2[nH]c2ccc(C4CCCCC4)cc32)cc1 (stereo not shown)
MIC (Moraxella catarrhalis; microbial growth, broth dilution; ATCC43617): 1 µg/mL

CCCCCCCCCCCCCCCCSCC1OC(OC2C(N)CC(N)C(OC3OC(CN)C(O)CC3N)C2O)C(O)C(N)C1O (stereo not shown)
MIC (Enterococcus; vancomycin-resistant): 18.8 µg/mL

C[N+]1=C2C(c3ccccc3)=[N+]([O-])c3ccccc3N2CCC1
MIC (Finegoldia magna): 32 µg/mL

CC[C@H](C)[C@H](NC(=O)[C@H](CC(C)C)NC(=O)[C@H](CCC(N)=O)NC(=O)[C@H](CO)NC(=O)[C@H](CCCNC(=N)N)NC(=O)[C@@H](N)CO)C(=O)N[C@H](C(=O)N[C@@H](Cc1c[nH]cn1)C(=O)N[C@@H](CCC(N)=O)C(=O)N[C@@H](CCCNC(=N)N)C(=O)N[C@@H](CC(C)C)C(=O)N[C@@H](Cc1ccccc1)C(N)=O)C(C)C
MIC (Candida parapsilosis; broth microdilution; RPMI MOPS-buffered): > 400 µg/mL

C[N+]1=C2C(c3ccc([N+](=O)[O-])cc3)=[N+]([O-])c3ccccc3N2CCC1
MIC (Porphyromonas asaccharolytica): 0.25 µg/mL

CC1C(=NNC(=O)c2ccncc2)C(C)C(c2ccc(Cl)cc2)OC1c1ccc(Cl)cc1 (stereo not shown)
MIC (Aspergillus niger; microbial growth): 25 µg/mL

N#Cc1ccc(-c2c[nH]c(CNC(=O)Nc3ncc(Sc4ccccn4)s3)n2)cc1
MIC (Bacteroides fragilis; broth microdilution; ATCC 25285; without verapamil): > 128 µM

CC[C@H](C)[C@H](NC(=O)[C@@H](NC(=O)CN)C(C)C)C(=O)N[C@@H](Cc1ccccc1)C(=O)N[C@@H](CC(N)=O)C(=O)N[C@@H](C)C(=O)N[C@@H](CC(C)C)C(=O)N[C@@H](CCCCN)C(=O)NCC(=O)N[C@H](C(=O)N[C@@H](C)C(=O)N[C@@H](CCCCN)C(=O)N[C@H](C(=O)N[C@H](C(=O)N[C@@H](C)C(=O)N[C@@H](C)C(=O)N[C@@H](CCC(N)=O)C(=O)N[C@@H](CC(C)C)C(=O)N[C@@H](CC(C)C)C(=O)N[C@@H](CCCCN)C(=O)N[C@@H](CCCCN)C(=O)N[C@@H](C)C(=O)N[C@@H](CCCNC(=N)N)C(=O)N[C@H]1CSSC[C@@H](C(=O)O)NC(=O)[C@H](CO)NC(=O)[C@H](CCCCN)NC(=O)[C@H](CC(=O)O)NC(=O)[C@H](CC(C)C)NC(=O)[C@H](CCCCN)NC1=O)C(C)C)[C@@H](C)O)C(C)C
MIC (Staphylococcus aureus; MRSA NCTC 12493, Mueller-Hinton broth; together with: FeCl3 4 mM): 2 µM

CC[C@H](C)[C@H](NC(=O)[C@H](CC(C)C)NC(=O)[C@H](CC(=O)O)NC(=O)[C@H](CO)NC(=O)[C@H](CCCNC(=N)N)NC(=O)[C@@H](N)CO)C(=O)N[C@H](C(=O)N[C@@H](Cc1c[nH]cn1)C(=O)N[C@@H](CCC(N)=O)C(=O)N[C@@H](CCCNC(=N)N)C(=O)N[C@@H](CC(C)C)C(=O)N[C@@H](Cc1ccccc1)C(N)=O)C(C)C
MIC (Candida parapsilosis; broth microdilution; RPMI MOPS-buffered): > 400 µg/mL

CC[C@H](C)[C@H](NC(=O)CNC(=O)[C@H](CCCCN)NC(=O)[C@H](C)NC(=O)[C@H](CCC(=O)O)NC(=O)[C@H](Cc1ccccc1)NC(=O)[C@H](CO)NC(=O)[C@H](CC(C)C)NC(=O)[C@@H](NC(=O)[C@H](CC(=O)O)NC(=O)[C@H](C)NC(=O)[C@@H](NC(=O)[C@@H](N)C(C)C)[C@@H](C)O)C(C)C)C(=O)N[C@@H](C)C(=O)N[C@H](C(=O)N[C@@H](CC(N)=O)C(=O)N[C@@H](Cc1c[nH]cn1)C(=O)N[C@@H](CO)C(=O)N[C@@H](C)C(=O)N[C@H]1CSSC[C@@H]2NC(=O)[C@H](C(C)C)NC(=O)CNC(=O)[C@H](CC(N)=O)NC(=O)[C@H](CCC(N)=O)NC(=O)[C@H](C)NC(=O)[C@H](CO)NC(=O)CNC(=O)CNC(=O)[C@H](CCCCN)NC(=O)[C@H](CCCCN)NC(=O)[C@H](CCCNC(=N)N)NC(=O)[C@H](CC(C)C)NC(=O)[C@H](C)NC(=O)[C@H]([C@@H](C)CC)NC(=O)[C@H](CSSC[C@@H](C(=O)N[C@@H](CCCNC(=N)N)C(=O)N[C@@H](CC(N)=O)C(=O)O)NC(=O)[C@H](C(C)C)NC2=O)NC(=O)[C@H](Cc2c[nH]cn2)NC(=O)[C@H](CC(C)C)NC(=O)[C@H](C)NC1=O)C(C)C
MIC (Gram-negative and Gram-positive bacteria; highest tested 100 µM): > 100 µM

[O-][N+]1=C(c2ccc(Cl)cc2)C2=NCCCN2c2ccccc21
MIC (Bacteroides fragilis; microbial growth; ATCC25285): 2 µg/mL

COC1C=COC2(C)Oc3c(C)c(O)c4c(c3C2=O)C2=NC3(CCN(CC(C)C)CC3)NC2=C(NC(=O)C(C)=CC=CC(C)C(O)C(C)C(O)C(C)C(OC(=O)Nc2cnccn2)C1C)C4=O (stereo not shown)
MIC (Mycobacteroides abscessus; ATCC 19977 arr knockout): 0.024 µM

O=[N+]([O-])c1ccc(C2=[N+]([O-])c3ccccc3N3CCCN=C23)cc1
MIC (Bacteroides fragilis; microbial growth; ATCC25285): ≤ 0.06 µg/mL

CC(C)C[C@H](NC(=O)[C@H](CCCNC(=N)N)NC(=O)[C@H](CCC(N)=O)NC(=O)[C@H](Cc1c[nH]cn1)NC(=O)[C@@H](NC(=O)[C@H](CCCNC(=N)N)NC(=O)[C@H](CC(C)C)NC(=O)[C@H](CCC(=O)O)NC(=O)[C@H](CO)NC(=O)[C@H](CCCNC(=N)N)NC(=O)[C@@H](N)CO)C(C)C)C(=O)N[C@@H](Cc1ccccc1)C(N)=O
MIC (Candida parapsilosis; broth microdilution; RPMI MOPS-buffered): > 400 µg/mL

COc1ccc(C2=[N+]([O-])c3ccccc3N3CCCN=C23)cc1
MIC (Bacteroides fragilis; microbial growth; ATCC25285): 2 µg/mL

OB(O)c1cnn(-c2cccc(Cl)c2)c1
MIC (Klebsiella aerogenes; bacterial growth; AmpC-overproducing clinical isolate; cefotaxime alone): 8 µg/mL

Some of these lines once more:
CC1C(=NNC(=O)c2ccncc2)C(C)C(c2ccc(Cl)cc2)OC1c1ccc(Cl)cc1 (stereo not shown)
MIC (Aspergillus niger; microbial growth): 25 µg/mL

N#Cc1ccc(-c2c[nH]c(CNC(=O)Nc3ncc(Sc4ccccn4)s3)n2)cc1
MIC (Bacteroides fragilis; broth microdilution; ATCC 25285; without verapamil): > 128 µM

CC[C@H](C)[C@H](NC(=O)[C@@H](NC(=O)CN)C(C)C)C(=O)N[C@@H](Cc1ccccc1)C(=O)N[C@@H](CC(N)=O)C(=O)N[C@@H](C)C(=O)N[C@@H](CC(C)C)C(=O)N[C@@H](CCCCN)C(=O)NCC(=O)N[C@H](C(=O)N[C@@H](C)C(=O)N[C@@H](CCCCN)C(=O)N[C@H](C(=O)N[C@H](C(=O)N[C@@H](C)C(=O)N[C@@H](C)C(=O)N[C@@H](CCC(N)=O)C(=O)N[C@@H](CC(C)C)C(=O)N[C@@H](CC(C)C)C(=O)N[C@@H](CCCCN)C(=O)N[C@@H](CCCCN)C(=O)N[C@@H](C)C(=O)N[C@@H](CCCNC(=N)N)C(=O)N[C@H]1CSSC[C@@H](C(=O)O)NC(=O)[C@H](CO)NC(=O)[C@H](CCCCN)NC(=O)[C@H](CC(=O)O)NC(=O)[C@H](CC(C)C)NC(=O)[C@H](CCCCN)NC1=O)C(C)C)[C@@H](C)O)C(C)C
MIC (Staphylococcus aureus; MRSA NCTC 12493, Mueller-Hinton broth; together with: FeCl3 4 mM): 2 µM

CC[C@H](C)[C@H](NC(=O)[C@H](CC(C)C)NC(=O)[C@H](CC(=O)O)NC(=O)[C@H](CO)NC(=O)[C@H](CCCNC(=N)N)NC(=O)[C@@H](N)CO)C(=O)N[C@H](C(=O)N[C@@H](Cc1c[nH]cn1)C(=O)N[C@@H](CCC(N)=O)C(=O)N[C@@H](CCCNC(=N)N)C(=O)N[C@@H](CC(C)C)C(=O)N[C@@H](Cc1ccccc1)C(N)=O)C(C)C
MIC (Candida parapsilosis; broth microdilution; RPMI MOPS-buffered): > 400 µg/mL
